Experimental data pooled from the literature.
Protocols differ between the studies behind these lines. ± marks the error that the study gave.

For `Cc1ccc([C@@H]2O[C@H](CO)[C@@H](O)[C@H](O)[C@H]2O)cc1Cc1ccc(-c2ccc(F)cc2)s1`, “urinary sodium excretion change” read -56.2 mEq (Japanese type 2 diabetes patients; 100 mg, day 18, 24 h urine collection; relative to: baseline).
For `Cc1c(C(=O)O)ccc2c3n(nc12)[C@@H]1[C@H](C3)N(CC2CC2)[C@@]2(C(=O)Nc3cc(Cl)ccc32)[C@H]1c1cccc(Cl)c1F`, “adverse event incidence” read 44% (phase Ia trial, measured: Diarrhea; cancer patients; oral, dose not given).
`C[C@@H]1[C@H](c2c(F)ccc(F)c2F)C[C@H](NC(=O)c2cnc3c(c2)C[C@@]2(C3)C(=O)Nc3ncccc32)C(=O)N1CC(F)(F)F` — result for “decrease in lag time”: 19.1% (human, plasma and blood; oral, solution formulation, model; relative to: tablet).
For `Cn1cc([C@H]2C[C@H]3CSC(N)=N[C@@]3(c3ccc(F)cc3F)CO2)cn1`, the CSF concentration was 251 nM (male 129/SVE mouse, CSF; subcutaneous, 10 mg/kg, 1 h).
`COc1ccc2c(c1)CN(C(=O)CCN1CCC(Cc3ccccc3)CC1)CC[S@@+]2[O-]` — result for “systolic blood pressure”: 129 ± 12 mmHg (telemetry; conscious male beagle dogs; intravenous, 4 mg/kg, 24 h).
`C[C@@H]1Cc2c([nH]c3ccccc23)[C@@H](c2c(F)cc(NC3CN(CCCF)C3)cc2F)N1CC(F)(F)CO`: “total brain concentration” 88 nmol/L (mouse, non-tumour-bearing, brain; oral, dose not given, 7 days daily, added: fulvestrant s.c.).
`CCc1cc(C(=O)NC)c2nccc(N3CCc4c(cc(Cn5ccnc5)cc4-c4cn(C)nc4C(F)(F)F)C3=O)c2c1` gave a body weight of 222 ± 9.2 g (Sprague Dawley rat; oral, 50 mg/kg once daily, day 1, 7-day toxicology study).
With `CCOc1c([C@H](C)n2nc(C)c3c(N)ncnc32)cc(Cl)c(F)c1[C@@H]1CNC(=O)C1` the AUC(0-last) was 5.99 ± 2.65 µM·h (patients, monotherapy; oral, 20 mg once daily, cycle 1 day 1).
With `Cl.[2H]C([2H])([2H])CC(=O)c1cnc(NC(=O)C2CC2)cc1Nc1cccc(-c2ncn(C([2H])([2H])[2H])n2)c1OC` the AUC(0-24 h) was 283 ng·h/mL (geometric mean; human; oral, 5 mg single dose, fasted, liquid).
For `N#Cc1ccc2c(c1)[C@H]1CCCN(C(=O)c3ccc4[nH]cnc4c3)[C@H]1C2`, “ACTH level change” read 0.8 pmol/L (human; 240 mg, day 15; relative to: baseline).
`O=C(O)c1cc(O)c(O)c(O)c1` has an absolute bioavailability of 57.8% (male Ross broilers, serum; oral, 0.49 mg/kg BW, AUC(0-6 h) based).
For `CNc1ccc(-c2nc3ccc(O)cc3s2)cc1` [carbon-11 labelled], the SUV was 0.204 ± 0.12 (ex vivo biodistribution; APP/PS1 mouse, AD model, hippocampus; intravenous, 30 min).
`Cc1ccc(C)c(OCCCC(C)(C)C(=O)O)c1` — result for “trough plasma concentration”: 1700 ng/mL (human, plasma; oral, dose not given, day 11 predose, mean).
The AST of `Cc1cccc(Cn2cc(CO)c3cnccc32)c1` is reported as 113 U/L (male F344 rat, serum; oral, 100 mg/kg/day, 2 days).
With `CCNCCNC(=O)c1c(C)[nH]c(/C=C2\C(=O)Nc3ccc(F)cc32)c1C` the serum concentration was 27.7 ng/mL (human, serum; 50 mg maintenance dose).
`Cc1cc(NC2CCN(C(=O)OC3CCN(C(=O)/C=C/CN(C)C)C3)CC2)n2ncc(C(C)C)c2n1` (stereo not drawn): “patients with adverse event” 6% (Phase I dose escalation CTCAE v4.0, measured: Hyponatremia; patients with advanced solid tumours; dose not given, all dose schedules any grade).
For `C[C@H]1Oc2cc(cnc2N)-c2c(nn(C)c2C#N)CN(C)C(=O)c2ccc(F)cc21`, “dose-normalised Cmax, mean” read 6 ng/mL/mg (patients, plasma; oral, dose not given, cycle 2 day 1, added: avelumab).
The GGT of `Nc1ncnc2c1ncn2[C@H]1C[C@@H]2OP(=O)(O)OC[C@H]3O[C@@H](n4cnc5c(N)ncnc54)C[C@@H]3OP(=O)(O)OC[C@H]2O1` is reported as 1.23 ± 0.56 U/L (non-tumor-bearing mice, serum; intravenous, 1 mg/kg, toxicity study).
`O=C(Nc1cnccc1Cl)N1CCN(Cc2ccc3c(c2)OC(F)(F)O3)CC1`: “injection site pain incidence” 0% (multiple ascending dose; elderly men and women; 100 mg, treatment-emergent adverse events).
With `CCN1/C(=C/C(C)=O)Sc2ccc(F)cc21` the PR interval was 92 ± 3 ms (cynomolgus monkey; oral, 30 mg/kg, 4 h post-dose).
`Cc1ccnc(C(=O)NC2CCCCC2)c1O` has a logP of 3.3 (shake-flask, potentiometric; 1-octanol/water).
`COc1ccc2nc(-c3ccccn3)c(N(C)c3ccc(F)cc3)n2c1` has an MRT(0-last) of 1.13 h (CD1 mouse, male, fasted, plasma; oral, 50 mg/kg, added: ABT 50 mg/kg).
`O=C(Cn1ccc([N+](=O)[O-])n1)N1CCCc2ccccc21` gave a logP of 2.01 (octanol/buffer; pH 11, known kinase inactives set).
`Cc1ccc2c(c1)nc(/C=C/c1cccc3cccnc13)n2-c1cccc(OCCCN2CCN(C)CC2)c1` gave a plasma concentration of 498 ± 38.9 nM (male Sprague-Dawley rat; oral, 10 mg/kg, 6 h).
`NC1(C(=O)N[C@@H](CCO)c2ccc(Cl)cc2)CCN(c2nc[nH]c3nccc2-3)CC1` — result for “incidence of Pyrexia”: 0% (metastatic CRPC patients; 320 mg b.i.d., any grade, treatment-related, added: enzalutamide 160 mg daily).
`CNC(=O)c1ccc(-c2cnc3ncc(Cc4ccc5ncccc5c4)n3n2)cc1F`: “Diarrhoea dose reduction/interruption” 1% (Japanese patients; oral, 400 mg, grade 3/4).
For `CCn1ccc2c([C@](O)(c3ccc(C(F)(F)F)nc3)C3CC3)n(C)nc2c1=O`, the CLint,u was 114 mL/min/kg (rat Sprague-Dawley male, blood; intravenous, 1 mg/kg).
Under “treatment-emergent adverse events”, `O=C(Nc1nc2cccc(-c3ccc(CN4CCS(=O)(=O)CC4)cc3)n2n1)C1CC1` is recorded as 8.3% (measured: musculoskeletal disorders; human rheumatoid arthritis patients; oral, 200 mg once daily, 4 weeks, regardless of relatedness).
For `CCc1cc2ncc(CN3CCN(c4ccc(C(=O)NC)nc4)CC3)cc2[nH]c1=O`, “Monocytes count ratio” read 0.33 (male rat, blood; oral, 25 mg/kg/day, 4 weeks; relative to: vehicle control).
`CCCCC1=NC2(CCCC2)C(=O)N1Cc1ccc(-c2ccccc2S(=O)(=O)Nc2noc(C)c2C)c(COCC)c1` has a Cmax of 8620 ng/mL (healthy adult volunteers, plasma; oral, 800 mg, single dose, fasted, crushed tablet).
Under “subjects with adverse event”, `CC(C)(C(=O)N1CCOc2c(C#N)cncc2C1)C(F)F` is recorded as 12.5% (measured: nervous system disorders; human; oral, 15 mg twice daily, 14 days, multiple ascending dose).
`O=C(O)C[C@H](O)C[C@H](O)/C=C/c1c(C2CC2)nc2ccccc2c1-c1ccc(F)cc1` gave an AUC(0-12h) of 0.0773 µM·h (FVB wild-type mouse, plasma; oral, 5 mg/kg, geometric mean).
Under “patients with adverse event”, `Cc1ccc(C(=O)N(CCCN)C(c2nc3snc(C)c3c(=O)n2Cc2ccccc2)C(C)C)cc1` (stereo not drawn) is recorded as 25% (hypophosphataemia grade ≥3 (CTCAE); human patients; intravenous, 7 mg/day).
With `COc1cc(OC)c(NC(=O)CSc2nnc(-c3ccncc3)n2-c2ccccc2)cc1Cl` the logP was 3.11 (octanol/buffer; pH 11, known kinase inactives set).
The brain concentration of `O=S(=O)(c1ccc(-c2ccc3nccc(Nc4ccncn4)c3c2)cc1)N1CCOCC1` is reported as 0 ng/g (female BALB/c mice, brain; intraperitoneal, 10 mg/kg, 4 h, mean).
The inhibition of `Cc1nc2c([nH]1)c(=O)n(C)c(=O)n2Cc1ccco1` is reported as 12.2 ± 1.88% (male rat liver microsomes; 20 µM, 3 h, added: DHA-Na 5 mg/L).
The accumulation ratio of `Cc1cc(-c2nccc3c2ccn3CC(=O)Nc2ccc(-c3cnccn3)cn2)ccn1` is reported as 1.32 (measured: Cmax; human, plasma; oral, 5 mg once daily; relative to: day 16 over day 1).
`CN1CCN(C(=O)CN(c2cc(C(F)(F)F)ccc2Cl)S(=O)(=O)c2ccccc2)CC1` has a logP of 2.97 (octanol/buffer; pH 11, known kinase inactives set).
With `CC1(C)C(/C=C/C2=C(Cl)C(=C/C=C3\N(CCCCCC(=O)O)c4ccccc4C3(C)C)/CCC2)=[N+](CCCCCC(=O)O)c2ccccc21` the emission maximum was 795 nm (water).
The CSF concentration of `Cn1cnc2c1c(=O)[nH]c(=O)n2C` is reported as 333 nM (human, both sexes, cerebrospinal fluid; dose not given, median).
`FC(F)(F)c1ccc(CNc2ccc(Cc3c[nH]c4ncc(Cl)cc34)cn2)cn1` — result for “decreased appetite incidence”: 2% (patients with advanced solid tumours; oral, 1000 mg/day, non-TGCT cohort, grade ≥3).
The priapism of `CCO` is reported as 11.1% (human; concentration not given, treatment-emergent adverse event).
For `Cc1nc(C(=O)N2CCC[C@H]2C(=O)N[C@@H](COC(C)(C)C)C(=O)N[C@@H](CC(C)C)C(=O)NC(C)(C)C(=O)N[C@@H](CC(C)C)C(=O)N[C@@H](CC(C)C)C(=O)NC(C)(C)C(=O)NC(C)(C)C(=O)NCCC(=O)NC2(CN(C)C)CCC2)co1`, the alpha-helix content was 38.7% (circular dichroism; phosphate buffer; pH 7.4, 20 °C).
`C[C@H]1O[C@@H](O[C@H]2CC[C@@]3(C)[C@@H](CC[C@]4(C)[C@@H]3C=C[C@]35OC[C@@]6(CCC(C)(C)C[C@H]63)[C@@H](O)C[C@]54C)[C@]2(C)CO)[C@H](O)[C@@H](O[C@@H]2O[C@H](CO)[C@@H](O)[C@H](O)[C@H]2O)[C@H]1O` has a plasma concentration of 0 ng/mL (UHPLC-MS/MS; mouse, plasma; oral, 50 mg/kg, 24 h).
`COc1ccc([C@@H](O)c2cc(-c3ncnc4cc(N5CCOCC5)ccc34)c(F)cc2Cl)nn1`: “gastrointestinal disorder TEAE” 100% (locally advanced rectal cancer patients; 250 mg, added: capecitabine and radiotherapy).
`CC1CCN(S(=O)(=O)c2ccc(Cl)c(C(=O)Nc3ccc(C(=O)O)cc3)c2)CC1` gave a logP of 0.15 (octanol/buffer; pH 11, known kinase inactives set).
With `N[C@H]1C(O)O[C@H](CO)[C@@H](O)[C@@H]1O` (stereo partly drawn) the osmolality was 31 mOsmol/kg (aqueous solution; 35 mM, added: glucose).
`O=C(O)CCC(=O)O.[2H]C([2H])([2H])Oc1cc(C)c2[nH]ccc2c1CN1CC[C@@H](C2CC2)C[C@H]1c1ccc(C(=O)O)cc1`: “subjects with elevated bilirubin TEAE” 0% (multiple ascending dose; healthy Chinese subjects; 50 mg twice daily).
`CCN1CCN(Cc2ccc(Nc3ncc(F)c(-c4cc(F)c5nc6n(c5c4)[C@H](C)CCC6)n3)nc2)CC1` has a Vd/F of 2320 L (human, plasma; 300 mg single dose, mean).
For `O=C(Nc1cc(C2CCCCC2)[nH]n1)c1ccc(Br)cc1`, the logP was 4.64 (octanol/buffer; pH 11).
For `O=c1c(O)c(-c2ccc(O)c(OS(=O)(=O)O)c2)oc2cc(O)cc(O)c12`, the CSF concentration was 18.1 nM (human, cerebrospinal fluid; concentration not given, median).
`Cc1cc(-c2nnc(N)nc2-c2ccc(F)cc2)cc(Cl)n1`: “patients with immune-mediated AE” 0% (measured: Arthritis; IO-naive mCRPC patients, male; oral, dose not given, treatment-related, grade 2).
For `CCO[C@H]1CCN(Cc2c(OC)cc(C)c3[nH]ccc23)[C@H](c2ccc(C(=O)O)cc2)C1`, “incidence reverse T3 increase” read 0% (PNH patients, active haemolysis; oral, 200 mg, treatment).
`Cc1ccnc(NS(=O)(=O)c2ccc(NC(=O)c3cncc(Br)c3)cc2)n1` has a logP of -0.44 (octanol/buffer; pH 11, known kinase inactives set).
The stability of `O=C(N/N=C/c1ccccc1O)c1ccncc1` is reported as 99.2% (DMEM cell medium; 115 µM, 7 days, -80 °C, long-term storage).
`CC1(CNC(=O)[C@H](CN)NC(=O)c2ccc(-c3ccccc3)cc2)NC(=O)NC1=O` (stereo partly drawn) gave a logP of -0.23 (octanol/buffer; pH 11).
`C=CC(=O)NC1CCN(c2ncc3ncnc(Nc4ccc(Oc5ccc6c(c5)ncn6C)c(C)c4)c3n2)CC1` gave a dose-normalised AUC(0-inf) of 293 nmol·h/L/mg (healthy male volunteers, plasma; intravenous, 10 µg [14C] microtracer).

Repeated from above:
`Cc1cc(NC2CCN(C(=O)OC3CCN(C(=O)/C=C/CN(C)C)C3)CC2)n2ncc(C(C)C)c2n1` (stereo not drawn): “patients with adverse event” 6% (Phase I dose escalation CTCAE v4.0, measured: Hyponatremia; patients with advanced solid tumours; dose not given, all dose schedules any grade).
For `C[C@H]1Oc2cc(cnc2N)-c2c(nn(C)c2C#N)CN(C)C(=O)c2ccc(F)cc21`, “dose-normalised Cmax, mean” read 6 ng/mL/mg (patients, plasma; oral, dose not given, cycle 2 day 1, added: avelumab).
The GGT of `Nc1ncnc2c1ncn2[C@H]1C[C@@H]2OP(=O)(O)OC[C@H]3O[C@@H](n4cnc5c(N)ncnc54)C[C@@H]3OP(=O)(O)OC[C@H]2O1` is reported as 1.23 ± 0.56 U/L (non-tumor-bearing mice, serum; intravenous, 1 mg/kg, toxicity study).
`O=C(Nc1cnccc1Cl)N1CCN(Cc2ccc3c(c2)OC(F)(F)O3)CC1`: “injection site pain incidence” 0% (multiple ascending dose; elderly men and women; 100 mg, treatment-emergent adverse events).
With `CCN1/C(=C/C(C)=O)Sc2ccc(F)cc21` the PR interval was 92 ± 3 ms (cynomolgus monkey; oral, 30 mg/kg, 4 h post-dose).
